Measurements from different studies.
RPS6KA6: Ribosomal protein S6 kinase alpha-6 (RPS6KA6, Homo sapiens, UniProt Q9UK32)
Sequence of UniProt Q9UK32 (whole entry, looked up): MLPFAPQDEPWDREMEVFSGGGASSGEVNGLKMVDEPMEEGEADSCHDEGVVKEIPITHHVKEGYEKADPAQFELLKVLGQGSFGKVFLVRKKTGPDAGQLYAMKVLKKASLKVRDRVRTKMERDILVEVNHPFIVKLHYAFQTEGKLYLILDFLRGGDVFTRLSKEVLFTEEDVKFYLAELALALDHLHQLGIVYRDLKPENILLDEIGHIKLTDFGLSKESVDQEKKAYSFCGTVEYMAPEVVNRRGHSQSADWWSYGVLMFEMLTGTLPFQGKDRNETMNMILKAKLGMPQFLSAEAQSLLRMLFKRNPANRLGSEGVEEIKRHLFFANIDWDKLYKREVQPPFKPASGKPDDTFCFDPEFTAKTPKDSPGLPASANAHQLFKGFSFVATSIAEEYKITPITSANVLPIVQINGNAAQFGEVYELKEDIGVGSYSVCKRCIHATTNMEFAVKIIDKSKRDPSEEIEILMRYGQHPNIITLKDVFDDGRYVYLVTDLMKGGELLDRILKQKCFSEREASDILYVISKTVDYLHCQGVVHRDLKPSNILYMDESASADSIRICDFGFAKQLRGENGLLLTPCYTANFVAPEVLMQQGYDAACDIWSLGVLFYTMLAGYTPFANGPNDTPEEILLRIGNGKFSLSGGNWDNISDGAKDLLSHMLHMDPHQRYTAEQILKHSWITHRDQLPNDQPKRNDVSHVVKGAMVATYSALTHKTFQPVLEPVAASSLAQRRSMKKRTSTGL
RPS6KA6 N-terminal kinase domain: Ribosomal protein S6 kinase alpha-6, N-terminal kinase domain (RPS6KA6, Homo sapiens, UniProt Q9UK32)

Compound | target | test | setting | scale | endpoint | result
CNc1ncc2c(/C=C/C(=O)N3CCC(OC)CC3)nn(Cc3cccc(C(F)(F)F)c3)c2n1 | RPS6KA6 | kinase activity, inhibitor | 1 µM | relative to: untreated control | remaining activity | 93%
CCN(CC)c1ccc(C2=NNC(=O)CC2C)cc1[N+](=O)[O-] (centres unmarked) | RPS6KA6 | enzyme activity, inhibitor | 10 µM | relative to: vehicle | remaining activity | 82%
COc1cc(F)ccc1-c1ncnc(Nc2cccc(C[S@](C)(=N)=O)c2)n1 | RPS6KA6 | kinase activity | 10 µM, added: 10 µM ATP |  | remaining activity | 106%
CCCOc1ccc(OC)c(F)c1C(=O)c1ccc(C(=O)N[C@@H]2CNC[C@H]2NC(=O)c2ccc3[nH]ncc3c2)cc1 | RPS6KA6 | enzyme activity | 10 µM |  | remaining activity | 16%
Cc1cc(Nc2cc(N3CCN(C)CC3)nc(Sc3ccc(NC(=O)C4CC4)cc3)n2)[nH]n1 | RPS6KA6 | kinase activity, KinaseProfiler | 0.03 µM, species human | relative to: control | remaining activity | 103%
C[C@@H](c1ccc(-n2cnc3c(N)ncnc32)cc1)N1CCc2nn(C)c(Cc3ccccc3)c2C1=O | RPS6KA6 N-terminal kinase domain | KINOMEscan | 0.1 µM | relative to: DMSO control | remaining binding | 50%
C=CC(=O)N1CCC(C(=O)NCC(=O)N2CCN(c3nc(-c4cnc(N)nc4C(F)F)nc(N4CCOCC4)n3)CC2)CC1 | RPS6KA6 N-terminal kinase domain | KINOMEscan | 1 µM |  | remaining binding | 100%
C=CC(=O)N1CCC(COCC(=O)N2CCN(c3nc(-c4cnc(N)nc4C(F)F)nc(N4CCOC[C@@H]4C)n3)CC2)CC1 | Ribosomal protein S6 kinase alpha-6, C-terminal kinase domain (RPS6KA6, Homo sapiens, UniProt Q9UK32) | KINOMEscan | 1 µM | relative to: DMSO control | remaining binding | 84%

Excerpt of the above:
Compound | target | test | setting | scale | endpoint | result
C=CC(=O)N1CCC(COCC(=O)N2CCN(c3nc(-c4cnc(N)nc4C(F)F)nc(N4CCOC[C@@H]4C)n3)CC2)CC1 | Ribosomal protein S6 kinase alpha-6, C-terminal kinase domain (RPS6KA6, Homo sapiens, UniProt Q9UK32) | KINOMEscan | 1 µM | relative to: DMSO control | remaining binding | 84%
